Results gathered from unrelated publications.
Each numbered part is a random draw from the data of one study; scales do not carry over between parts. Values joined by “and” are separate records of one study, mostly repeats; a detail may differ.
Sequence of UniProt P07333 (whole entry, looked up): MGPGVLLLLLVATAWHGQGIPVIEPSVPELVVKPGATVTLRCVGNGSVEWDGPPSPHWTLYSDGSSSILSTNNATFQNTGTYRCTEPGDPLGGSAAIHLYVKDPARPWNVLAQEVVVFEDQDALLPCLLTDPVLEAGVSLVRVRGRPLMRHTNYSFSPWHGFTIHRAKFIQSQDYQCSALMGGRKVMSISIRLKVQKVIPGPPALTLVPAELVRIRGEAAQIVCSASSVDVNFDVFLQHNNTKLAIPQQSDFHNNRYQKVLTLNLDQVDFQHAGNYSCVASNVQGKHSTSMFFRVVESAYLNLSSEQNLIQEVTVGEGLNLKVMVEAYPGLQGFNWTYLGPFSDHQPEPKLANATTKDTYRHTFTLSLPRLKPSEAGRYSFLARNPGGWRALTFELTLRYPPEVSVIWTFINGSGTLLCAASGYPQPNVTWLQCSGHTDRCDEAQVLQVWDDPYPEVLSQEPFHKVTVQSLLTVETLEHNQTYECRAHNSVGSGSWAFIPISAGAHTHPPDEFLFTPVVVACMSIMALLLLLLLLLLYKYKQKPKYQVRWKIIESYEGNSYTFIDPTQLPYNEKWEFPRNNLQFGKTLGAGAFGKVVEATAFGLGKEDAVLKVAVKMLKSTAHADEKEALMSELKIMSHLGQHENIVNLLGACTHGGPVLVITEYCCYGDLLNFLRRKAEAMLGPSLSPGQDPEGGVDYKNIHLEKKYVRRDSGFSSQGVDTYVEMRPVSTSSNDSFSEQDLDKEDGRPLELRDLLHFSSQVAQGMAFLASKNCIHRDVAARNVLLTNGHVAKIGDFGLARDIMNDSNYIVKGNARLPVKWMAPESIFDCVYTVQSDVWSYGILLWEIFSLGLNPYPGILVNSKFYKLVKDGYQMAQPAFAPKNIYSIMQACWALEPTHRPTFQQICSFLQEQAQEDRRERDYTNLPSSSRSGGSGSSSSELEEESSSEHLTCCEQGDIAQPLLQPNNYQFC
Sequence of UniProt P53355 (whole entry, looked up): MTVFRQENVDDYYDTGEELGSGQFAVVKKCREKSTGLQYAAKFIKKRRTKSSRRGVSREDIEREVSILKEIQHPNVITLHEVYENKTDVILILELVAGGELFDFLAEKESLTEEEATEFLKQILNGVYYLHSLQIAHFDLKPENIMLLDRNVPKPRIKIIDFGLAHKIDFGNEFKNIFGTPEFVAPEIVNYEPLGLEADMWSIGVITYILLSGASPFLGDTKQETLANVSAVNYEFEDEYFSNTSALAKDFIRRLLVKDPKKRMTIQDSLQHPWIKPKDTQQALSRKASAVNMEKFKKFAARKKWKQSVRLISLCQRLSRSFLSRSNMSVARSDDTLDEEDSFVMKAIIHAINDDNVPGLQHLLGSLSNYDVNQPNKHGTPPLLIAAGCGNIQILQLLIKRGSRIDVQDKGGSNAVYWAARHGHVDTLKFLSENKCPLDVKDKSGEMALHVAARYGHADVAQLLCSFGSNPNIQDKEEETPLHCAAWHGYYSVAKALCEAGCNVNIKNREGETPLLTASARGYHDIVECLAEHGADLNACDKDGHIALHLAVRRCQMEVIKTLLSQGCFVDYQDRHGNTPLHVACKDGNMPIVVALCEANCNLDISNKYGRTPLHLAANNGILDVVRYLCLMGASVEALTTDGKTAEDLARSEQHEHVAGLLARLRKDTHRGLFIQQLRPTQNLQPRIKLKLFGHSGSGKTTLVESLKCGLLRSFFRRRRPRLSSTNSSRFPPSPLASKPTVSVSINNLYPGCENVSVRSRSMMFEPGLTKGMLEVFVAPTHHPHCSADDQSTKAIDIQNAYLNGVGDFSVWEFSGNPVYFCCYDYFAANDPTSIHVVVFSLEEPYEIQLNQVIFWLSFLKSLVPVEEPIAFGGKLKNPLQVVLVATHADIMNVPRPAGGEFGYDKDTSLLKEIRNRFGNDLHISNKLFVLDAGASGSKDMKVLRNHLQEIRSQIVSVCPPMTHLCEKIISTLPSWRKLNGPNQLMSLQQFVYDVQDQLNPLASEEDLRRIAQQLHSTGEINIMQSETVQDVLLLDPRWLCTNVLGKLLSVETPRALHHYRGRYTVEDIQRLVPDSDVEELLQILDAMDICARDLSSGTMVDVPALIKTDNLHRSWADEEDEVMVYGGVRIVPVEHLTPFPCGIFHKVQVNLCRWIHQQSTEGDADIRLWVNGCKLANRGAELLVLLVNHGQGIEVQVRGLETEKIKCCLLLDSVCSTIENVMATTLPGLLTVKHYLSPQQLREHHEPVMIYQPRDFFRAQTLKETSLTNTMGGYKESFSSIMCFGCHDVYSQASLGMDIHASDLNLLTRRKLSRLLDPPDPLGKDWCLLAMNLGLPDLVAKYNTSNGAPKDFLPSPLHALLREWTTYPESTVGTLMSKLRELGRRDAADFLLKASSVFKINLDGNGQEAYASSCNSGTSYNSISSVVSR

Block 1 — effect on: cell-free assay; technique: competition with immobilised ligand; tested at: 1 µM
SMILES: CNC(=O)Nc1ccc2c(c1)CC[C@@]21OC(=O)N(CC(=O)N(Cc2ccc(F)cc2)[C@@H](C)C(F)(F)F)C1=O
| target | remaining binding [%] |
| --- | --- |
| STK35 (Homo sapiens, UniProt Q8TDR2) | 89 |
| LATS1 (Homo sapiens, UniProt O95835) | 60 |
| CSF1R (Homo sapiens, UniProt P07333) | 99 |
| LRRK2 (Homo sapiens, UniProt Q5S007, G2019S) | 100 |
| CDK4 (Homo sapiens, UniProt P11802) | 55 |
| DAPK1 (Homo sapiens, UniProt P53355) | 96 |
| PTK2 (Homo sapiens, UniProt Q05397) | 94 |
| EPHA2 (Homo sapiens, UniProt P29317) | 76 |
| PIP5K1A (Homo sapiens, UniProt Q99755) | 95 |
| MAPK4 (Homo sapiens, UniProt P31152) | 84 |

Block 2 — effect on: enzyme activity; action: inhibitor; tested at: 77 µM; baseline: untreated
Target: DNA polymerase theta, ATPase domain (POLQ, Homo sapiens, UniProt O75417)
Sequence of UniProt O75417 (whole entry, unmodified, looked up): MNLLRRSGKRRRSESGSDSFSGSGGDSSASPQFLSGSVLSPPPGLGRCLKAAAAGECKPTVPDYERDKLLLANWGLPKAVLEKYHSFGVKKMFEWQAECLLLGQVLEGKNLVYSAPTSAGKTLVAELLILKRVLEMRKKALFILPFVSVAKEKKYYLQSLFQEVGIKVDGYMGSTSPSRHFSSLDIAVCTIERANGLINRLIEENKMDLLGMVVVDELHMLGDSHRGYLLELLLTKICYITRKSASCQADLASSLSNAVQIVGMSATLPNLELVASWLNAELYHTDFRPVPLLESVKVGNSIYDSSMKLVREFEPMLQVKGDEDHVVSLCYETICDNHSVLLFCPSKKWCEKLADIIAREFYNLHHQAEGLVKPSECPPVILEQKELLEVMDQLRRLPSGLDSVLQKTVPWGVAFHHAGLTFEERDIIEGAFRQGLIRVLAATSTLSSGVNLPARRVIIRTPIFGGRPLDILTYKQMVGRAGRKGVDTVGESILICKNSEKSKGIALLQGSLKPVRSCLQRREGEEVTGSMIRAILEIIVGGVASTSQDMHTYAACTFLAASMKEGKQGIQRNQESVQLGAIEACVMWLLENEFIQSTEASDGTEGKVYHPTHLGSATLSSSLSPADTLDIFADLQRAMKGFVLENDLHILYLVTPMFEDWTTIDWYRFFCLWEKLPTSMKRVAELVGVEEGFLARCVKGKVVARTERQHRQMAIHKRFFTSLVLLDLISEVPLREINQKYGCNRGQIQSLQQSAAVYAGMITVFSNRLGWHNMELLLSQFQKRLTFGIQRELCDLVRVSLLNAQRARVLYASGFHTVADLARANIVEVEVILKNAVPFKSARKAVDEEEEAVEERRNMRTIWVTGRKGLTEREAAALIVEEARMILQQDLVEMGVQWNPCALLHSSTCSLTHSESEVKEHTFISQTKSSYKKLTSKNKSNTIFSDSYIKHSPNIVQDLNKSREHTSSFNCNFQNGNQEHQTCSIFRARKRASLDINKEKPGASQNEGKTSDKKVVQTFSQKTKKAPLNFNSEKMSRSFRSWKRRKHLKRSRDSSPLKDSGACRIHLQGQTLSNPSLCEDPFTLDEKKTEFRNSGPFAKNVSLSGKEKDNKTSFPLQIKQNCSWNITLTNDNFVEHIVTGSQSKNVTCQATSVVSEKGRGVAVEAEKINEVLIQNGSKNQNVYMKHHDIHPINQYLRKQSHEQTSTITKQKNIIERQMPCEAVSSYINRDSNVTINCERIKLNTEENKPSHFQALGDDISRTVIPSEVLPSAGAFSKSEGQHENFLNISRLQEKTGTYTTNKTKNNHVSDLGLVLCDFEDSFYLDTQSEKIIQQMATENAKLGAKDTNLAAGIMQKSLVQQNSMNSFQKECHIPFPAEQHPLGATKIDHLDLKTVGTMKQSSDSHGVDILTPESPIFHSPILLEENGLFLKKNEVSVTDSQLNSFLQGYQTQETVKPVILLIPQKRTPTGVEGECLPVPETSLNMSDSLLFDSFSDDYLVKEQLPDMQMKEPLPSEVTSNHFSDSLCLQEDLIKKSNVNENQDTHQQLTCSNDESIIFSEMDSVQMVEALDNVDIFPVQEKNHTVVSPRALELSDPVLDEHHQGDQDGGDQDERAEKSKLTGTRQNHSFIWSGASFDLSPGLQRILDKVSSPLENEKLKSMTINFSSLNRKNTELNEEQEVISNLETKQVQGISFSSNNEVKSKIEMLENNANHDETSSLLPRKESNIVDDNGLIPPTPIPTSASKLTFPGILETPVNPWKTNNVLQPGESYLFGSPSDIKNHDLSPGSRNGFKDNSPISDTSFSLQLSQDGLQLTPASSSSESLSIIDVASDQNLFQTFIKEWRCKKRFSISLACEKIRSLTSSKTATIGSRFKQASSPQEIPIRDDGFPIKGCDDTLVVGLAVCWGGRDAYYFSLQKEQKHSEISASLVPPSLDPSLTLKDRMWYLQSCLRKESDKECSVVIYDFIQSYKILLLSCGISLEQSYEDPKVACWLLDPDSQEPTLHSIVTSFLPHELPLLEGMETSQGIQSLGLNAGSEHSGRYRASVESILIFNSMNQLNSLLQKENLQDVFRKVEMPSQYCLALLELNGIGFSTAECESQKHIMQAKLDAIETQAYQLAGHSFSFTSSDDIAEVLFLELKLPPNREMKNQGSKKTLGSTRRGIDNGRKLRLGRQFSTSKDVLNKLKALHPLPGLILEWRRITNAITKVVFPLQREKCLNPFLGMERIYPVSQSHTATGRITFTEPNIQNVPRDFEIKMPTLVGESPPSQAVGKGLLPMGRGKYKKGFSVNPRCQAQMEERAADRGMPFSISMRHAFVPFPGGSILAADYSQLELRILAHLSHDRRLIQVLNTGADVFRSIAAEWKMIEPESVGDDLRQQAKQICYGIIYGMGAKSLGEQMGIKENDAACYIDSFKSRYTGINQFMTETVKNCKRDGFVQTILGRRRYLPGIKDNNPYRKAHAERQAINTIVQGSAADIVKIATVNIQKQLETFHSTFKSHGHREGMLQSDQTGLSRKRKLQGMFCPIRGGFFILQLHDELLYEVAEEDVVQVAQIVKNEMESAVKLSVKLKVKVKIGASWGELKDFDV
| SMILES | remaining activity |
| --- | --- |
| C[C@H](NC(=O)Cc1cc(F)cc(F)c1)C(=O)N[C@@H]1C(=O)N(C)c2ccccc2-c2ccccc21 | 94.1% |
| CC(=O)O[C@]1(C(C)=O)CC[C@H]2[C@@H]3C=C(C)C4=CC(=O)CC[C@]4(C)[C@H]3CC[C@@]21C | 101% and 95.1% |
| Cn1c(=O)c2c(ncn2CCO)n(C)c1=O | 106% |
| Nc1nc(=O)c2nc(CNc3ccc(C(=O)N[C@@H](CCC(=O)O)C(=O)O)cc3)cnc2[nH]1 | 101% |
| CC(=O)[C@H]1CC[C@H]2[C@@H]3C[C@H](C)C4=CC(=O)CC[C@]4(C)[C@H]3[C@@H](O)C[C@]12C | 102% |
| CCn1cc(C(=O)O)c(=O)c2cnc(N3CCNCC3)nc21 | 109% |

Block 3 — effect on: enzyme activity; action: inhibitor; tested at: 0.5 µM; baseline: control
Target: Macrophage colony-stimulating factor 1 receptor (CSF1R, Homo sapiens, UniProt P07333)
| SMILES | remaining activity |
| --- | --- |
| N#CC(C#N)=C(N)/C(C#N)=C/c1ccc(O)cc1 | 98% |
| O=c1c2ccccc2[nH]c(=S)n1CCN1CCC(=C(c2ccc(F)cc2)c2ccc(F)cc2)CC1 | 102% |
| O=C(Nc1cccc(Nc2cc(Nc3cccc(C(F)(F)F)c3)ncn2)c1)C1CC1 | 99.9% |
| CC(C)[C@H](CO)Nc1nc(Nc2cc(N)cc(Cl)c2)c2ncn(C(C)C)c2n1 | 71.1% |
| O=C1NC(=O)C(c2cn(CCCn3ccnc3)c3ccccc23)=C1Nc1ccccc1 | 97.5% |
| COc1ccc(CNC(=O)Nc2ncc([N+](=O)[O-])s2)cc1 | 99.2% |
| O=C1NC(=O)C(c2cn(CCCO)c3ncccc23)=C1c1cnccn1 | 98.4% |
| O=C(O)c1ccc2c3c1cccc3c(=O)n1c3ccccc3nc21 | 104% |
| COc1cc2ncnc(Nc3ccc(Oc4ccccc4)cc3)c2cc1OC | 100% |
| Cn1sc(=O)n(Cc2ccccc2)c1=O | 98.6% |
| NCCNc1ncc(C(N)=O)c(Nc2cccc(C(F)(F)F)c2)n1 | 78.6% |
| COc1cc2nccc(Oc3ccc(NC(=S)NC(=O)c4ccccc4C)cc3)c2cc1OC | 10.5% |

Block 4 — cell line: A-375; tested at: 100 µM; time: 36 h
| SMILES | viability [%] |
| --- | --- |
| C[C@H]1[C@H](NC(=O)/C(=N\OC(C)(C)C(=O)O)c2csc(N)n2)C(=O)N1S(=O)(=O)O | 100 |
| CCOCC(O)COc1ccc(NC(=O)CC[S+](C)C)cc1 (stereo not drawn) | 123 |
| Cc1ncc([N+](=O)[O-])n1C | 108 |
| Cc1nc(C)c(Cl)c(O)c1Cl | 103 |
| COc1cc(/C=C/C(=O)N2CCN(CC(=O)N3CCCC3)CC2)cc(OC)c1OC | 116 |
| CC(=O)N[C@H]1[C@H]([C@H](O)[C@H](O)CO)OC(C(=O)O)=C[C@@H]1N=C(N)N | 110 |
| CC1(C)CCC(C)(C)c2cc(NC(=O)c3ccc(C(=O)O)cc3)ccc21 | 52.8 |
| Nc1cc(F)ccc1NC(=O)c1ccc(CNC(=O)/C=C/c2cccnc2)cc1 | 4.57 |

Some of these lines once more (block 3):
| SMILES | remaining activity |
| --- | --- |
| COc1cc2ncnc(Nc3ccc(Oc4ccccc4)cc3)c2cc1OC | 100% |
| Cn1sc(=O)n(Cc2ccccc2)c1=O | 98.6% |
| NCCNc1ncc(C(N)=O)c(Nc2cccc(C(F)(F)F)c2)n1 | 78.6% |
